Assay results pooled from the literature.
Each numbered part is a random draw from the data of one study; scales do not carry over between parts.

Block 1
Target: TAR DNA-binding protein 43, full length, His tag (TARDBP, Homo sapiens, UniProt Q13148, residues 1-414)
Technique: RNA Bind-n-Seq
Molecule type: RNA
Sample: in vitro
Tested at: 20 nM
Notes: 6-mer, flanks averaged, single round
Together with: 150 mM KCl
Reference: input library
Direction: higher = stronger binding
Oligonucleotide	6-mer enrichment (R)
UGAUUG	0.832
AUUUGC	0.657
GCCGAU	0.832
AAAGAC	0.61
GCCACU	0.701
GUCCUG	0.838
UAUAUC	0.552

Block 2
Target: Interferon regulatory factor 5, full length, phosphomimetic (IRF5, Homo sapiens, UniProt Q13568-2, residues 1-514, S451D/S453D/S456D/S462D)
Technique: protein-binding microarray
Molecule type: double-stranded DNA, one strand shown
Sample: in vitro
Tested at: 940 nM top
Notes: 60-bp whole probe
Together with: salmon DNA 0.4 mg/ml
Reference: random background probes
Direction: higher = stronger binding
All sequences stand within: GCCTAGCAC … GTCTTGATTCGCTTGACGCTGCTG
Oligonucleotide	fitted relative affinity
GACGGTTTGCTTTCCCTGACGTGCTAG	0.51 z-score
GATGGACTGGGTATCGGGACGTGCTAG	0.876 z-score
TTAGATTTCAGTTTCGATCAGTGCTAG	8.98 z-score
TTAGGTTTCGGGTTTCGGTTCGTGCTA	10.8 z-score
TTAGATTTCAGATCCGATTAGTGCTAG	0.0266 z-score

Block 3
Target: Histone acetyltransferase KAT6A, winged helix 1, GST fusion (KAT6A, Homo sapiens, UniProt Q92794, residues 1-85)
Technique: protein binding microarray
Molecule type: double-stranded DNA, one strand shown
Sample: in vitro
Tested at: not given
Notes: 8-mer, flanks averaged, mean of 2 arrays, mostly near background
Reference: not given
Direction: higher = stronger binding
Target sequence (chain): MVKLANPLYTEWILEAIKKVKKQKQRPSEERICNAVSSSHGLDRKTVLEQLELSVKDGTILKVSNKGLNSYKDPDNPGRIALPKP
Oligonucleotide	E-score
GGCCGTAA	0.371
AAGCGGTA	0.232
AAGGTATG	-0.107
GCGACTCA	0.112
ATTAGTCA	-0.0558
GTGATCAA	-0.173

Single results of other studies
Substance	target	test	system	conditions	scale	endpoint	value
PhoQ, residues 284 288 289 292 302 303 SACGEM	PhoP, residues 12 14 15 18 19 LHTVM (Escherichia coli, UniProt P23836)	Sort-seq, item: YFP reporter	E. coli	PhoQ-PhoP variant library, together with: 10 µM Mg2+	reference: high Mg2+ state, higher = stronger signaling	fold induction	8.45

Some of these lines once more (block 1):
Oligonucleotide	6-mer enrichment (R)
AAAGAC	0.61
GUCCUG	0.838
GCCGAU	0.832
